Assay results gathered from unrelated publications.
Parts stem from different laboratories: compare values within a part only. ± marks the error that the study gave.
Chain of UniProt O75676 (whole entry, looked up): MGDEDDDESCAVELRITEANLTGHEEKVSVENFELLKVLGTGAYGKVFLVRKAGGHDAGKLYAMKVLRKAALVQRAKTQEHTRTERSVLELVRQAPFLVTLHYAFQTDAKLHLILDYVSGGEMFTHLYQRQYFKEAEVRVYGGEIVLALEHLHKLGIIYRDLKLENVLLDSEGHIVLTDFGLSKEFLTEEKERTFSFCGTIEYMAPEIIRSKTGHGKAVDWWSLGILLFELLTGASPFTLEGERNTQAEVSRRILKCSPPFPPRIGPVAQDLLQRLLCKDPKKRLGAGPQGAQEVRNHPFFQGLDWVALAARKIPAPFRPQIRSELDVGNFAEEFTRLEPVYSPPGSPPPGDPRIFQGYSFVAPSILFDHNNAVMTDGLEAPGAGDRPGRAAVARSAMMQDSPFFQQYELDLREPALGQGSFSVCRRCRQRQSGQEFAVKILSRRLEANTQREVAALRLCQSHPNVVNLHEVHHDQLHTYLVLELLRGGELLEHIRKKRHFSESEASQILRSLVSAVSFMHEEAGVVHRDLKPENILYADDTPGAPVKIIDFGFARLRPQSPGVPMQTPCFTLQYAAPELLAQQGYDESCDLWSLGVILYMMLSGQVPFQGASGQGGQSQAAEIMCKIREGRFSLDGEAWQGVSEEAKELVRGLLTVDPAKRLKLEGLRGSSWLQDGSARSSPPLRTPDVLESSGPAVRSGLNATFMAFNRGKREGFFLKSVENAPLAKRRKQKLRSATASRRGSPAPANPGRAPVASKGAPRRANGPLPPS
Chain of UniProt Q8N4C8 (whole entry, looked up): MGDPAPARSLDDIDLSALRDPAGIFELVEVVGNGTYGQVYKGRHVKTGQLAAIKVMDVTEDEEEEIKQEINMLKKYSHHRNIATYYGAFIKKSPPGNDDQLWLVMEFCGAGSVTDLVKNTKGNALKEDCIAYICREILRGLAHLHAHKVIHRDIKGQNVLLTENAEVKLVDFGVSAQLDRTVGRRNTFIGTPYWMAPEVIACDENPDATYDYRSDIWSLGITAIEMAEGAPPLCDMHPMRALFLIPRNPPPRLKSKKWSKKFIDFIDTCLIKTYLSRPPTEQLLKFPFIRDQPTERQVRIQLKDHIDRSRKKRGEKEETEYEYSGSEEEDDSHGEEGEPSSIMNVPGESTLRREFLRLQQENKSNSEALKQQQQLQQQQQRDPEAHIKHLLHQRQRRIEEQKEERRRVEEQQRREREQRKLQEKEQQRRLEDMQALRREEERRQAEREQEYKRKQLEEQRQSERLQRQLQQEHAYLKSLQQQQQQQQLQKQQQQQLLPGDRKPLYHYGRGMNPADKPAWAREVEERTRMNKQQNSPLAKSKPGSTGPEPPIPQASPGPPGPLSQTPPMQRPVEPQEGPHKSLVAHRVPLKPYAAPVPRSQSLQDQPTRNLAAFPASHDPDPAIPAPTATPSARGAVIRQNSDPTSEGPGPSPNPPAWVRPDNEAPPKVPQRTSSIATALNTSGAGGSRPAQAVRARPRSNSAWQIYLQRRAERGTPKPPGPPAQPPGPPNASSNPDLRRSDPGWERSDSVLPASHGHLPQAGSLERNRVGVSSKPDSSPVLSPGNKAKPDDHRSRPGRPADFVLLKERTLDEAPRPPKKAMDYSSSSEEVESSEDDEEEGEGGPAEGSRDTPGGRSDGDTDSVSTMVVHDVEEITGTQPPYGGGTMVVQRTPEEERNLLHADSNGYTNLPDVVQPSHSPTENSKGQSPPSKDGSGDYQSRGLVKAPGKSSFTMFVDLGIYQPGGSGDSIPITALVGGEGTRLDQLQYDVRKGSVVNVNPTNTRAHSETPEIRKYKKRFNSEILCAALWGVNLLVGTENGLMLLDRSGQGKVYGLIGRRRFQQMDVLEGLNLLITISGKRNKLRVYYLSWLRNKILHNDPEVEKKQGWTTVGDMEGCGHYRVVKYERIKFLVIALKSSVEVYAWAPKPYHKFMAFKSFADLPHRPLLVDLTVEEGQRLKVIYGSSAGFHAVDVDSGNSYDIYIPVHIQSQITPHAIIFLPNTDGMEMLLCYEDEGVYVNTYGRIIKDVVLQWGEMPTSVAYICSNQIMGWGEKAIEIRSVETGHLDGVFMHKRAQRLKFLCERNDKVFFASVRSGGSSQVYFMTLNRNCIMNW
Chain of UniProt Q13464 (whole entry, looked up): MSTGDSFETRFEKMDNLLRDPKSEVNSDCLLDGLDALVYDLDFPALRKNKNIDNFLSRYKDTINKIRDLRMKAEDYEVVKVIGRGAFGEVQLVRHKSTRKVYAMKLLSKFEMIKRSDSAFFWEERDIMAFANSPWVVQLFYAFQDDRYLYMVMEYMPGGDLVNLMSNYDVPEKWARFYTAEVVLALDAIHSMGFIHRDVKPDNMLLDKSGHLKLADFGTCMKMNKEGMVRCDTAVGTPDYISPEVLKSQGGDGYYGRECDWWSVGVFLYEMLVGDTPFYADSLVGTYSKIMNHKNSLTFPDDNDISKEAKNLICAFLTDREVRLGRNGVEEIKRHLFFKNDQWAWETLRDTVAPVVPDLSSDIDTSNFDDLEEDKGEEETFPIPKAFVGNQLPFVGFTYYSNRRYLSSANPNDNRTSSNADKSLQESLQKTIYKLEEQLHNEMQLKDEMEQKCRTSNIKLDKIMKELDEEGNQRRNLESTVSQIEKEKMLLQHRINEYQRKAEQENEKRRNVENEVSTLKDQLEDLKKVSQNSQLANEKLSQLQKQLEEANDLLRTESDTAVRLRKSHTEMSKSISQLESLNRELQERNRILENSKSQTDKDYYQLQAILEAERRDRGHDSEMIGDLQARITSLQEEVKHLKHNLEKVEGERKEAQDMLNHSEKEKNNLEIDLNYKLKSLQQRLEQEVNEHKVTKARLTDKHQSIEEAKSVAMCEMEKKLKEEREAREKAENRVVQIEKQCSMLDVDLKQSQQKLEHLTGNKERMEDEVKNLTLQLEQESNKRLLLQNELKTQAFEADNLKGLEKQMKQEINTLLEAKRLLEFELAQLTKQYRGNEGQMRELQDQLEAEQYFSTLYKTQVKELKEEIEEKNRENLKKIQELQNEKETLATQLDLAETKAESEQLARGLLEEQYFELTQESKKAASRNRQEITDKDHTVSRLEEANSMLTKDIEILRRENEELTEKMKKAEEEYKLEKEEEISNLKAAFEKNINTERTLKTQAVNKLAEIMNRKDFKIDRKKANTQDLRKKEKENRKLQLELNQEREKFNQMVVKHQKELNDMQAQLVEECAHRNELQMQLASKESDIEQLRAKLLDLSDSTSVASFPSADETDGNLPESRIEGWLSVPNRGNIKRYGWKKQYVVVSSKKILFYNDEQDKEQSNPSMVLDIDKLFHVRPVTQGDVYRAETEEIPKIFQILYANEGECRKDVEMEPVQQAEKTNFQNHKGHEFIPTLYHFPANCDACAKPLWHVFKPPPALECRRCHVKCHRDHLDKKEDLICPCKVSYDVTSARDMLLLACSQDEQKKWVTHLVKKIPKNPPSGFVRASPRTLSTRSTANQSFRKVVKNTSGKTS
Chain of UniProt P48729 (whole entry, looked up): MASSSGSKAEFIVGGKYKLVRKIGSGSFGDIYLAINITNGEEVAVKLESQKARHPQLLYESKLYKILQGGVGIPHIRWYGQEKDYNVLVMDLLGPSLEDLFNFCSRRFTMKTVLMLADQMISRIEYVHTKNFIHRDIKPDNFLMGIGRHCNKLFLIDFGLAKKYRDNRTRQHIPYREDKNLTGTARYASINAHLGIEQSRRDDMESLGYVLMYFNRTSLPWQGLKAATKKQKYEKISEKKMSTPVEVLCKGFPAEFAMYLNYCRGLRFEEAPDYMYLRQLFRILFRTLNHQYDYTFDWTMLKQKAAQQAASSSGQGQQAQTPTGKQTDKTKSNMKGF
Chain of UniProt P50750 (whole entry, looked up): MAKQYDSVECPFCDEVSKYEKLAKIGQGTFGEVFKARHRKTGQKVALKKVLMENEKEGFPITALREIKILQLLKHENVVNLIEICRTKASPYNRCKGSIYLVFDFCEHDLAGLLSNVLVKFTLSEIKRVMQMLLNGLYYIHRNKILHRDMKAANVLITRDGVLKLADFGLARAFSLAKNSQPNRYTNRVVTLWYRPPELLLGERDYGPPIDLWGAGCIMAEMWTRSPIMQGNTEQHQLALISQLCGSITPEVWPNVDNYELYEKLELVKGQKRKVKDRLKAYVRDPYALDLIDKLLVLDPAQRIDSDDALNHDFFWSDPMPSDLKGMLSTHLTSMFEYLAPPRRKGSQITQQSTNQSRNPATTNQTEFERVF
Chain of UniProt P20794 (whole entry, looked up): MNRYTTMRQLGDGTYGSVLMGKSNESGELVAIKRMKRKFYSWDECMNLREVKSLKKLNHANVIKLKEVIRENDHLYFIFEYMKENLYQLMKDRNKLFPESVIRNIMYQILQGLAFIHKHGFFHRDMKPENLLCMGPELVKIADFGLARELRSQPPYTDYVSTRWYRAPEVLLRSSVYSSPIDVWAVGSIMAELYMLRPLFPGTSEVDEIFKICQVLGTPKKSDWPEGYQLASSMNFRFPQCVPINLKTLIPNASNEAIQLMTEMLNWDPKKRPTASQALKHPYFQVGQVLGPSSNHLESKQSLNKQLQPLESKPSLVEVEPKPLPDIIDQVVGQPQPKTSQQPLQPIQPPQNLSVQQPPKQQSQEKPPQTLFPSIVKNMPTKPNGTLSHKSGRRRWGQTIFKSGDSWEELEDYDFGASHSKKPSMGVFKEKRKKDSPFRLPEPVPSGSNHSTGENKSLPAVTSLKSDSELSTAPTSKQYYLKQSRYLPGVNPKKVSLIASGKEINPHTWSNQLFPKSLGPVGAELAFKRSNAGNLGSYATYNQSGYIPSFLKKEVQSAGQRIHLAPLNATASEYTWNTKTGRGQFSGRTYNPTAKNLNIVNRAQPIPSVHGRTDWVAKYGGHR

Set 1
SMILES: C[C@@H]1CN(c2cc(-c3n[nH]c4ccc(OC5(C)CC5)cc34)ncn2)C[C@H](C)O1
Read-out: cell-free assay
Technique: competition with immobilised ligand
Concentration: 0.1 µM
Endpoint: remaining binding
MAK (Homo sapiens, UniProt P20794): 95%
HASPIN (Homo sapiens, UniProt Q8TF76): 74%
IRAK1 (Homo sapiens, UniProt P51617): 79%
IKBKB (Homo sapiens, UniProt O14920): 84%
Ribosomal protein S6 kinase alpha-4, C-terminal kinase domain (RPS6KA4, Homo sapiens, UniProt O75676): 75%
PIK3CG (Homo sapiens, UniProt P48736): 72%
NEK5 (Homo sapiens, UniProt Q6P3R8): 100%
CDK3 (Homo sapiens, UniProt Q00526): 76%
Tyrosine-protein kinase ABL1, phosphorylated (ABL1, Homo sapiens, UniProt P00519, T315I): 86%
MAPKAPK5 (Homo sapiens, UniProt Q8IW41): 93%
CDK14 (Homo sapiens, UniProt O94921): 100%
STK4 (Homo sapiens, UniProt Q13043): 83%
KIT (Homo sapiens, UniProt P10721, D816V): 79%

Set 2
Cell line: mouse MPNST tumor cells
Technique: high-content immunofluorescence imaging
Measured: nuclear SOX9
Concentration: 10 µM
Time: 12 h
Setting: mean of 2 replicates
Relative to: DMSO control
Direction: higher = more nuclear SOX9
Endpoint: nuclear SOX9 intensity
COc1cc(NS(=O)(=O)c2ccc(N)cc2)ncn1: 93.5 % of DMSO
CC1(C)S[C@@H]2[C@H](NC(=O)[C@H](N)c3ccc(O)cc3)C(=O)N2[C@H]1C(=O)O: 92.2 % of DMSO
Cc1cc(NC(=O)Nc2ccc(N(C)C)cc2)c2cc(F)cc(F)c2n1: 136 % of DMSO
Cc1cc(C)c(C2=NOC3C4CCC(C4)C23)c(C)c1 (stereo not drawn): 127 % of DMSO
CCN1C(=O)NC(c2ccccc2)C1=O (stereo not drawn): 91.7 % of DMSO
COc1ccc(C(=O)c2ccccc2)c(O)c1: 102 % of DMSO
Cc1ccc(C(C)C)cc2c(C)ccc1-2: 103 % of DMSO
CC(C)(N)c1ncc(-c2ccc(OC(F)(F)F)cc2)[nH]1: 126 % of DMSO
O=c1c(-c2ccc(O)cc2)coc2cc(O)ccc12: 107 % of DMSO

Set 3
Compound: CC(C)CCN1c2nc(Nc3cc(F)c(O)c(F)c3)ncc2N(C)C(=O)C1C (stereo not drawn)
Endpoint: Kd
CSNK1E (Homo sapiens, UniProt P49674): 70 nM
CSNK1A1 (Homo sapiens, UniProt P48729): 66 nM
CAMKK1 (Homo sapiens, UniProt Q8N5S9): 1300 nM
MYLK (Homo sapiens, UniProt Q15746): > 3000 nM
TNIK (Homo sapiens, UniProt Q9UKE5): 110 nM
Bromodomain-containing protein 4, BD1 (BRD4, Homo sapiens, UniProt O60885); ITC; 15 °C: 3550 ± 178 nM
CSNK1A1L (Homo sapiens, UniProt Q8N752): 21 nM

Set 4
SMILES: O=Nc1c(-c2c(O)[nH]c3ccccc23)[nH]c2ccccc12
Read-out: enzyme activity
Mode: inhibitor
Concentration: 0.5 µM
Relative to: control
Endpoint: remaining activity
PNCK (Homo sapiens, UniProt Q6P2M8): 106%
CLK4 (Homo sapiens, UniProt Q9HAZ1): 59.2%
TXK (Homo sapiens, UniProt P42681): 66.7%
MAPK14 (Homo sapiens, UniProt Q16539): 97.2%
RPS6KA4 (Homo sapiens, UniProt O75676): 58.7%
PLK3 (Homo sapiens, UniProt Q9H4B4): 93%
MARK4 (Homo sapiens, UniProt Q96L34): 56.2%
AKT2 (Homo sapiens, UniProt P31751): 92%
Cyclin-dependent kinase 9, with cyclin K (CDK9, Homo sapiens, UniProt P50750): 59.7%
KDR (Homo sapiens, UniProt P35968): 72.9%
MINK1 (Homo sapiens, UniProt Q8N4C8): 50.2%
MAPK1 (Homo sapiens, UniProt P28482): 96.6%
ROCK1 (Homo sapiens, UniProt Q13464): 101%

Excerpt of the above (set 3):
CAMKK1 (Homo sapiens, UniProt Q8N5S9): 1300 nM
MYLK (Homo sapiens, UniProt Q15746): > 3000 nM
TNIK (Homo sapiens, UniProt Q9UKE5): 110 nM
Bromodomain-containing protein 4, BD1 (BRD4, Homo sapiens, UniProt O60885); ITC; 15 °C: 3550 ± 178 nM
